# Published values pooled from the literature.
# A part holds a random share of what one study measured.
# Chain of UniProt P42681 (whole entry, looked up): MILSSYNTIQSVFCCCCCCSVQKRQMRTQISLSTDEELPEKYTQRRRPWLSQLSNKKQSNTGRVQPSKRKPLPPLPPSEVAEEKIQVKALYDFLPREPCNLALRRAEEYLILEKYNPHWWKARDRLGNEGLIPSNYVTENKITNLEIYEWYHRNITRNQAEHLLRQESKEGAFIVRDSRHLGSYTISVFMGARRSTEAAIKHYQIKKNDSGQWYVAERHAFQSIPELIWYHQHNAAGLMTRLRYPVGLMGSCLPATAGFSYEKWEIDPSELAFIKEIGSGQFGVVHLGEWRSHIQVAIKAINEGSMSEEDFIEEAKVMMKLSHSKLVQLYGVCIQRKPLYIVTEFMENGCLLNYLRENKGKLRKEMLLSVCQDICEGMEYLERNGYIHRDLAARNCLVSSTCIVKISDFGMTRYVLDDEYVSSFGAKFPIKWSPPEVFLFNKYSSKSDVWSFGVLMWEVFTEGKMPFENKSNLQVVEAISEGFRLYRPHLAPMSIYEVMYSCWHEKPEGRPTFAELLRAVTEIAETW
# Chain of UniProt Q86UX6 (whole entry, looked up): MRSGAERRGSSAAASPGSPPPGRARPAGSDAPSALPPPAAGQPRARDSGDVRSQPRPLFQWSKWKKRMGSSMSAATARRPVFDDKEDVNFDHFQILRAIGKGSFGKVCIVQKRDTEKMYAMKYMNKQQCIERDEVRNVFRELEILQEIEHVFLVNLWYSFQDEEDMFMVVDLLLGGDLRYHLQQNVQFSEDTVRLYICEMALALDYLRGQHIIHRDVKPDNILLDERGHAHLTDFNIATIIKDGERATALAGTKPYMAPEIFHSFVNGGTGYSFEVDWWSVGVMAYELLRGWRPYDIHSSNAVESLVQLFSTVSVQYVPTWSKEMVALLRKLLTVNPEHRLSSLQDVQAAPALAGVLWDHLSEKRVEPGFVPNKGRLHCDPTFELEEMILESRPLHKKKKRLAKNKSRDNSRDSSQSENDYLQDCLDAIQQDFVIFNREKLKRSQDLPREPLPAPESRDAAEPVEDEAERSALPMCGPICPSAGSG
# Chain of UniProt Q13233 (whole entry, looked up): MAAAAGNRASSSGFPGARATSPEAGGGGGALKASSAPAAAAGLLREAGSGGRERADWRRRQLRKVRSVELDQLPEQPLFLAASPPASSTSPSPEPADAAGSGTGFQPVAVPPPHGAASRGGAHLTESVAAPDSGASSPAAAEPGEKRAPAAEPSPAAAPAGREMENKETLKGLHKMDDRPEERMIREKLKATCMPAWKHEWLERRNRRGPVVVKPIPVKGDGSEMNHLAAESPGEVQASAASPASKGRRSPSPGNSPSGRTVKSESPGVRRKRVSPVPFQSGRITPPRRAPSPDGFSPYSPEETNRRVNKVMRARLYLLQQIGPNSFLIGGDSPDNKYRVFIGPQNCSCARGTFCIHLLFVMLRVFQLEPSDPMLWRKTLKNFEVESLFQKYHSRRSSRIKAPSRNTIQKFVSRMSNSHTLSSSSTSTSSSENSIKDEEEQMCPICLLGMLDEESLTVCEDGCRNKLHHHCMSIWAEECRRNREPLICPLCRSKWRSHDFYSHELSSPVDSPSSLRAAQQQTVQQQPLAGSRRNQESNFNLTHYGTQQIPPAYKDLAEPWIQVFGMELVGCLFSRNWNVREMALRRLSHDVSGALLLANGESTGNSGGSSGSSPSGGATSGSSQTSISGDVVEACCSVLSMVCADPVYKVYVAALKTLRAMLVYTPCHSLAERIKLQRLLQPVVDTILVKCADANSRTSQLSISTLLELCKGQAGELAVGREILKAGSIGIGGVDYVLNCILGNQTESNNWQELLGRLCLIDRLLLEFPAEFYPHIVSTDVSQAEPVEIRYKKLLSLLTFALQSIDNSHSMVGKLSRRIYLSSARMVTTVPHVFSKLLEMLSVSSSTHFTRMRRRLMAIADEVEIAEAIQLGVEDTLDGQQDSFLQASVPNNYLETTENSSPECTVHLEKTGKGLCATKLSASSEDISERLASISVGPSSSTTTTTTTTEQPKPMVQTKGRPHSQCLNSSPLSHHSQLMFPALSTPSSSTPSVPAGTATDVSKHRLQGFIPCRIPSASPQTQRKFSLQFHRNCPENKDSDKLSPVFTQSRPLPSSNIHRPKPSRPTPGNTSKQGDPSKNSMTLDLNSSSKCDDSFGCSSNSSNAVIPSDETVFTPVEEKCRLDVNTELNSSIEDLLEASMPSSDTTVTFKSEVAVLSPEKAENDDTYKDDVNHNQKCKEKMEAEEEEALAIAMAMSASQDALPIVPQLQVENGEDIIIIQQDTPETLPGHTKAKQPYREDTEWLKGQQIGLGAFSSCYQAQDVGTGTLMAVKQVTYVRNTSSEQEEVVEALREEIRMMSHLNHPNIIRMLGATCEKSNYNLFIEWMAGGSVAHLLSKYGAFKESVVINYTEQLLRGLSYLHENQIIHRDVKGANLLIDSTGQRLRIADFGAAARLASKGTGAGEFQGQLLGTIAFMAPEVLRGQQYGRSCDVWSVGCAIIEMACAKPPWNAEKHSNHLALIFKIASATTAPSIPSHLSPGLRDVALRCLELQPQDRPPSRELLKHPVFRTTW
# Chain of UniProt P31751 (whole entry, looked up): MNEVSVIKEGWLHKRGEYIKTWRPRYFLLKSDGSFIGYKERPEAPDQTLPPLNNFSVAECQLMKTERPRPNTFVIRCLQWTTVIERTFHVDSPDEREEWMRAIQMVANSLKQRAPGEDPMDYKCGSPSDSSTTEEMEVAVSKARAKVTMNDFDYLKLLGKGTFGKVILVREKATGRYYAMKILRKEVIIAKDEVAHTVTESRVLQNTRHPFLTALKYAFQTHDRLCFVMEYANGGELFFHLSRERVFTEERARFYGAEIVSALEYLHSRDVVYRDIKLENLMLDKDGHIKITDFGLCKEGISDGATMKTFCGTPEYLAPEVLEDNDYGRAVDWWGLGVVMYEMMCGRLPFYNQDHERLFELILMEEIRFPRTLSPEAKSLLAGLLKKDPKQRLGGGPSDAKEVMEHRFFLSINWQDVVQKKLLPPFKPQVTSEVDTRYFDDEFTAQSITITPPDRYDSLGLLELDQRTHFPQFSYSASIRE
# Chain of UniProt Q15349 (whole entry, looked up): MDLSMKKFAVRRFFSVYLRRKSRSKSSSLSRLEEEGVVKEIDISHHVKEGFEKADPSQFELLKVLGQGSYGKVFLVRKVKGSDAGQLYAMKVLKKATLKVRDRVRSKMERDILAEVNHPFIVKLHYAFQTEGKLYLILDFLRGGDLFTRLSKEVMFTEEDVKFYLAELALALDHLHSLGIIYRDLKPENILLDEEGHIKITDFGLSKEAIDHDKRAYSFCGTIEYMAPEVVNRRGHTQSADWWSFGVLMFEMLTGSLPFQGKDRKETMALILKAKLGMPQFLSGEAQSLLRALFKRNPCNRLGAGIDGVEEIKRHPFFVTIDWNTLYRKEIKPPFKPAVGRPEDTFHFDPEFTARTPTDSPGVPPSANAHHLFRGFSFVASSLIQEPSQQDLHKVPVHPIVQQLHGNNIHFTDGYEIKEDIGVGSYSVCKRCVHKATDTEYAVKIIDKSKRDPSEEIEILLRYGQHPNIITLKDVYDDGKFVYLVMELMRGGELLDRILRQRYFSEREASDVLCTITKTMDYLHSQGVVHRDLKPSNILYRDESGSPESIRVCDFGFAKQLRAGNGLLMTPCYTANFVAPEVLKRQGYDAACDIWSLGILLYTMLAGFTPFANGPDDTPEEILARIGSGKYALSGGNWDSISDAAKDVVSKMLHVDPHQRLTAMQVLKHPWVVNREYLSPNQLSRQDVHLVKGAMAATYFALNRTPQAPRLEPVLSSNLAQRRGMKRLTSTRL
# Chain of UniProt Q6P3R8 (whole entry, looked up): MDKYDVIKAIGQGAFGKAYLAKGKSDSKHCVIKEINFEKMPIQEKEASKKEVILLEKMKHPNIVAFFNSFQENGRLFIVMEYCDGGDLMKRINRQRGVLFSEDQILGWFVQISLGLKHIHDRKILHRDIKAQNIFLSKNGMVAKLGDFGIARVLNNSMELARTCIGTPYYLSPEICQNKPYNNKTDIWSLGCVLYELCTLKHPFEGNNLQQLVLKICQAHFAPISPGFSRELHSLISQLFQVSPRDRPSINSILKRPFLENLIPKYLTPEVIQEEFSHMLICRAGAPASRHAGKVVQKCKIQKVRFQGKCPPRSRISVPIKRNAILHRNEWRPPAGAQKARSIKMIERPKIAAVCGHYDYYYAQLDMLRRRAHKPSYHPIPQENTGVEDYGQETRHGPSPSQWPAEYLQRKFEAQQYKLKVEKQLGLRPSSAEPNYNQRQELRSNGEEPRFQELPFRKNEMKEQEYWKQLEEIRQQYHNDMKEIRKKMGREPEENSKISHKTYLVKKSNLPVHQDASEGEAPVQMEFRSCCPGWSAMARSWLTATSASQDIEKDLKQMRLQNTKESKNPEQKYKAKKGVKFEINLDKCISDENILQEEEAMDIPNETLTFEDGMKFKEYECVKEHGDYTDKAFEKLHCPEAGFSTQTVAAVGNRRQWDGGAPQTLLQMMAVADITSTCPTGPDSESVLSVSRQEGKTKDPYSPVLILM

# Study 1
# Compound: CN([C@@H]1CCc2c(CC(=O)O)c3ccccc3n2C1)S(=O)(=O)c1ccc(F)cc1
# Technique: competition with immobilised ligand
# Tested at: 1 µM
target,effect on,remaining binding [%]
"Mitogen-activated protein kinase kinase kinase 1 (MAP3K1, Homo sapiens, UniProt Q13233)",cell-free assay,62
"Ribosomal protein S6 kinase alpha-2, N-terminal kinase domain (RPS6KA2, Homo sapiens, UniProt Q15349)",cell-free assay,84
"RAC-beta serine/threonine-protein kinase (AKT2, Homo sapiens, UniProt P31751)",cell-free assay,95
"Serine/threonine-protein kinase 32C (STK32C, Homo sapiens, UniProt Q86UX6)",cell-free assay,100
"Serine/threonine-protein kinase Nek5 (NEK5, Homo sapiens, UniProt Q6P3R8)",cell-free assay,100
"Tyrosine-protein kinase TXK (TXK, Homo sapiens, UniProt P42681)",binding,93

# Study 2
# Effect on: AlphaScreen signal
# Technique: AlphaScreen counter screen
# Sample: His6 peptide without bromodomain
# Tested at: 50 µM
# Notes: assay interference check
Structure (SMILES),inhibition [%]
Nc1nc(Nc2ccc(F)cc2)sc1C(=O)c1ccc(Cl)cc1,69.2
Nc1ncnc2c1c(I)cn2[C@@H]1O[C@H](CO)[C@@H](O)[C@H]1O,6.95
COc1cc2c(Oc3ccc4[nH]c(C)cc4c3F)ncnc2cc1OCCCN1CCCC1,45
CC(Cl)C(=O)C(C#N)=C1Nc2ccccc2S1 (stereo not shown),27
CC(C)CCN1c2nc(Nc3cc(F)c(O)c(F)c3)ncc2N(C)C(=O)C1C (stereo not shown),46.2
COc1cc2nccc(Oc3ccc(NC(=O)Nc4cc(C)on4)c(Cl)c3)c2cc1OC,34.2

# Study 3
# Host: mouse
# Sample: microsomes or S9
# Tested at: 2 µM
# Time: 0.5 h
SMILES,remaining compound [%]
O=c1c2cnn(-c3ccc(F)cc3)c2ncn1Cc1cccnc1,95.2
Cc1nc(C(C)N(C)CCCS(=O)(=O)N(C)C)c(C)s1 (stereo not shown),52.8
COc1ccc2c(/C=C3/C(=O)c4ccccc4S(=O)(=O)N3C)c[nH]c2c1,47.4
Cc1cc(OCC(=O)N(C(C)C)C(C)C)ccc1Cl,0.0857
CC(=O)O[C@@H]1CC2C(C)(CC[C@H](O)C2(C)C)C2CC[C@]3(C)C(=CC(=O)O[C@H]3c3ccoc3)C21C (stereo partly shown),3.69

# Study 4
# Target: Tyrosine-protein kinase Yes (YES1, Homo sapiens, UniProt P07947)
# Chain of UniProt P07947 (whole entry, looked up): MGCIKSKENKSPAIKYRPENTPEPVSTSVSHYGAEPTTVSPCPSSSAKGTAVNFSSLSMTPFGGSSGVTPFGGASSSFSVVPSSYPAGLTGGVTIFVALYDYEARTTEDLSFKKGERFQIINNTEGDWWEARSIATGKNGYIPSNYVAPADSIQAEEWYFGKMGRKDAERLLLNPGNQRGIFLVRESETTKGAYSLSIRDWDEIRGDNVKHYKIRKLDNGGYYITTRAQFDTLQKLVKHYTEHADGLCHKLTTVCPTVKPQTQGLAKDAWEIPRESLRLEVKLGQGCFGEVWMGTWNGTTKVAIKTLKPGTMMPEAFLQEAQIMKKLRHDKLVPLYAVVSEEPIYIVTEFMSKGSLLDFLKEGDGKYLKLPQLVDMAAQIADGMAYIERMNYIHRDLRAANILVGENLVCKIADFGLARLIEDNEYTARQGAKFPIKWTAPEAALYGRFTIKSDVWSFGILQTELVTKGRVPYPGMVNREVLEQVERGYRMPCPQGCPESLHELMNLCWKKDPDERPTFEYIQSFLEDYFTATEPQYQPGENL
# Effect on: enzyme activity
# Action: inhibitor
# Tested at: 0.5 µM
# Relative to: control
Structure (SMILES),remaining activity [%]
O=S(=O)(c1cccc2cnccc12)N1CCCNCC1,96.5
O=C(Nc1cccc(Nc2cc(Nc3cccc(C(F)(F)F)c3)ncn2)c1)C1CC1,99.6
OCC(O)CCON=C1C(c2c(O)[nH]c3ccccc23)=Nc2ccccc21 (stereo not shown),13.4
Nc1[nH]nc2nc3ccccc3nc12,97.1
C#Cc1cccc(Nc2ncnc3cc(OCCOC)c(OCCOC)cc23)c1,68.3
O=C1NC(=O)C(c2cn(CCCn3ccnc3)c3ccccc23)=C1Nc1ccccc1,89.3
CN(C)c1ccc(C=C2C(=O)Nc3ccccc32)cc1,89.3
COc1ccc(OC)c2c(=S)c3ccccc3[nH]c12,89.2
O=C1NC(=O)C(c2cn(CCCO)c3ncccc23)=C1c1cnccn1,80.1
NCCNc1ncc(C(N)=O)c(Nc2cccc(C(F)(F)F)c2)n1,84.7
COc1cc2nccc(Oc3ccc(NC(=S)NC(=O)c4ccccc4C)cc3)c2cc1OC,23.9
Cc1cccc(-c2[nH]c(C(C)(C)C)nc2-c2ccc3c(c2)OCO3)n1,97
COc1cc2ncnc(Nc3ccc(F)c(Cl)c3)c2cc1OCCCN1CCOCC1,74.4
Cn1c2ccccc2c2c3c(c4c5ccccc5n(CCC#N)c4c21)CNC3=O,68.7

# For quick reference, copied from above (study 4):
Structure (SMILES),remaining activity [%]
Cc1cccc(-c2[nH]c(C(C)(C)C)nc2-c2ccc3c(c2)OCO3)n1,97
Nc1[nH]nc2nc3ccccc3nc12,97.1
O=C1NC(=O)C(c2cn(CCCO)c3ncccc23)=C1c1cnccn1,80.1
C#Cc1cccc(Nc2ncnc3cc(OCCOC)c(OCCOC)cc23)c1,68.3
O=C1NC(=O)C(c2cn(CCCn3ccnc3)c3ccccc23)=C1Nc1ccccc1,89.3
